# Results gathered from unrelated publications.
# Each line is one published result; not all experiments were run side by side. Several values in a cell are separate wells, animals, samples, runs or records.
Substance,target or system,assay,system,conditions,how to read,quantity,result
CN1C(=O)C(O)(C(=O)O)Oc2cc(F)ccc21 (stereo not shown),Arabidopsis thaliana,root length,Col-0,"6.25 µg/mL, 7 days, seed germination, dark",,inhibition,11.9%
AGGGAGGGAGGGAGGGAAAAAAA (RNA; intramolecular G-quadruplex),Fmr1 fragment (Mus musculus),fluorescence polarization,folded RNA,KCl 150 mM,,binding,binds
CCn1cnc2c(NCc3nc4cc(Cl)c(Cl)cc4[nH]3)nc(N3CCN(S(C)(=O)=O)CC3)nc21,MDA-MB-231,"cell viability, CellCounting-Lite",,"74.07 nM, 37 °C",higher = more viable cells,luminescence signal,167000 a.u. and 146000 a.u. and 138000 a.u.
O=C(O)C1Oc2cc(F)ccc2N(Cc2ccccc2)C1=O (stereo not shown),Arabidopsis thaliana,hypocotyl length,"Col-0, seedlings",6.25 µg/mL,,inhibition,4.68%
Cc1ncsc1-c1ccc(C(CO)NC(=O)C2CC(O)CN2C(=O)C(C(C)C)n2cc(-c3ccc(COc4c(-c5c(C)c(F)cc6[nH]ncc56)c(C5CC5)cc5c(N6CC7CC6CN7)nc(OC6CCOCC6)nc45)cc3)nn2)cc1 (stereo not shown),,,"mouse (PK-59 xenograft), plasma","intravenous, 10 mg/kg, 48 h",,concentration,4.51 ng/mL and 6.67 ng/mL and 3.14 ng/mL
Cc1ccc(O)c(C)c1-c1cnc2[nH]c(-c3cnc(N)nc3)cc2c1C#N,,,Sprague-Dawley rat,"intravenous, dose not given, 24 h",,plasma concentration,not detected
Cc1nc(C)c(C=[N+]([O-])C(C)(C)C)nc1C,CDK5,Western blot,MPTP mouse model,"90 mg/kg, unit not given",relative to: β-actin,CDK5 protein level,69.8 and 185 and 139 and 118

# Excerpt of the above:
Substance,target or system,assay,system,conditions,how to read,quantity,result
Cc1ccc(O)c(C)c1-c1cnc2[nH]c(-c3cnc(N)nc3)cc2c1C#N,,,Sprague-Dawley rat,"intravenous, dose not given, 24 h",,plasma concentration,not detected
